Experimental data gathered from unrelated publications.
Compare with care: the assays were run in different laboratories.
UniProt P21127, sequence (whole entry, looked up): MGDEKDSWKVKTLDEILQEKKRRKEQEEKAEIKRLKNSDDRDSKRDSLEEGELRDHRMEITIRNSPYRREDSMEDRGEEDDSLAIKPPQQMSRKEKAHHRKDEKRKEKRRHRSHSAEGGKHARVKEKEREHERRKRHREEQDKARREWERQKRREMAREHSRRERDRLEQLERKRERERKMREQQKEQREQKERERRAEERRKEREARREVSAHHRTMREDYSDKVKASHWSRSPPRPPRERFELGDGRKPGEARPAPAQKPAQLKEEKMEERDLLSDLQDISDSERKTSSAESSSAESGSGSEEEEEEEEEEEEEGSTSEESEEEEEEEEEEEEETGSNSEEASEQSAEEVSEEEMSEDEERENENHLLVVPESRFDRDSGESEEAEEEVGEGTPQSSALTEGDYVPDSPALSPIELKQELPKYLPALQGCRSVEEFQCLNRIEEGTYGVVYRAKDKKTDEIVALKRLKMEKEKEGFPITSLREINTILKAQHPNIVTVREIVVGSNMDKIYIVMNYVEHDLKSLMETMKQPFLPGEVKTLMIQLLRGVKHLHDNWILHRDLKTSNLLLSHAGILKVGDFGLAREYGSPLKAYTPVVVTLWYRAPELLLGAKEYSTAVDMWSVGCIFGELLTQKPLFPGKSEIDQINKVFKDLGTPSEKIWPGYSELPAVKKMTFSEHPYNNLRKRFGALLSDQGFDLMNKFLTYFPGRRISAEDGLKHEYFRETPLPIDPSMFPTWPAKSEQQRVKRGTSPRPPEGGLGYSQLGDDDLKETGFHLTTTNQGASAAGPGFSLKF
UniProt P53350, sequence (whole entry, looked up): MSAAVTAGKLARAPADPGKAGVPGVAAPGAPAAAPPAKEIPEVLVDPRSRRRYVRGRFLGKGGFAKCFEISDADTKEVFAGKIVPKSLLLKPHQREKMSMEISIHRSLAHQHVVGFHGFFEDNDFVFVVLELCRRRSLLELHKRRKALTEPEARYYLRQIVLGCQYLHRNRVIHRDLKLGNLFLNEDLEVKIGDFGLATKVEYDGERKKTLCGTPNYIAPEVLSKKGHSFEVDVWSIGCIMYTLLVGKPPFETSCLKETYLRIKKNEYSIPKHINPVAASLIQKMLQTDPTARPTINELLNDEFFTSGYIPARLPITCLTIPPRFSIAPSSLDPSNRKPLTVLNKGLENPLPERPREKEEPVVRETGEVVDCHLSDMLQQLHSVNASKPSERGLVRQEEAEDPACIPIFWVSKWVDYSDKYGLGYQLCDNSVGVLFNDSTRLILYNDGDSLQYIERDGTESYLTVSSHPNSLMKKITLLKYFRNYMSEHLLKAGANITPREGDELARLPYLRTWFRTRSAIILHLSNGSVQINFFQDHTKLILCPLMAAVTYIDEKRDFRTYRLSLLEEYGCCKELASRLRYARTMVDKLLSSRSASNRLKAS
UniProt P32238, sequence (whole entry, looked up): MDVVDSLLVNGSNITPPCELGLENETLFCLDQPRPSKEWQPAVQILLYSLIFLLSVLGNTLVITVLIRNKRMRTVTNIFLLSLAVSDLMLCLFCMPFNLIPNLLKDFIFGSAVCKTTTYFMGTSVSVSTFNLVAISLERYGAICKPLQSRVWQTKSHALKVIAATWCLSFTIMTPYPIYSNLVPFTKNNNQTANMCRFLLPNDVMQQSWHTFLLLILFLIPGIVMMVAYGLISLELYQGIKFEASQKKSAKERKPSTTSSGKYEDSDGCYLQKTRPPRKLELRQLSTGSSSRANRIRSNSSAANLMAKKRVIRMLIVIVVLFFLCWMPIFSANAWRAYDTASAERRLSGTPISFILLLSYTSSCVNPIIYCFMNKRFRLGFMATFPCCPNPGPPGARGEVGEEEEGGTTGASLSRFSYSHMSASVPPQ
UniProt P27037, sequence (whole entry, looked up): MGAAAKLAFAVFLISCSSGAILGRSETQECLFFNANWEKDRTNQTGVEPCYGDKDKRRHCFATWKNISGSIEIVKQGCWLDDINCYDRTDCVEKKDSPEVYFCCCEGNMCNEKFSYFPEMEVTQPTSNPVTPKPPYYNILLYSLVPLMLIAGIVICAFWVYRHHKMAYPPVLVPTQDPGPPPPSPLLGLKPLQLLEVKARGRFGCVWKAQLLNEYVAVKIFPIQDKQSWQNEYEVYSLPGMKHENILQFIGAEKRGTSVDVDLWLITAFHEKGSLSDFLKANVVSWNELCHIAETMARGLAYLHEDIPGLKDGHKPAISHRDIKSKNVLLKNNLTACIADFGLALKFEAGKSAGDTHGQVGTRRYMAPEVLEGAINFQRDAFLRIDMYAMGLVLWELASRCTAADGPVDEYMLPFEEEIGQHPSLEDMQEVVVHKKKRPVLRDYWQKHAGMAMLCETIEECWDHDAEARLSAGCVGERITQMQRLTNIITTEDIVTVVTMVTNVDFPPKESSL
UniProt Q9H3N8, sequence (whole entry, looked up): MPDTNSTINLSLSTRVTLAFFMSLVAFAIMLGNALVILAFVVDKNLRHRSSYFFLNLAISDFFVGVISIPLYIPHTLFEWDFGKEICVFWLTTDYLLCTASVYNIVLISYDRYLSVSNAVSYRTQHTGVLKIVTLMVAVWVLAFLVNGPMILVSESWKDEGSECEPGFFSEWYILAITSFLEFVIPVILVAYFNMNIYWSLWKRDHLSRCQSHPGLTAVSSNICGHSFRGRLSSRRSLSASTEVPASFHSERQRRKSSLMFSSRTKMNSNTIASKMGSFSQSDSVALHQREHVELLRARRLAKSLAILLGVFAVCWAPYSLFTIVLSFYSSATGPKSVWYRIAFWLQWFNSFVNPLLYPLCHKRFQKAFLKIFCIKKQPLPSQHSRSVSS
UniProt O60741, sequence (whole entry, looked up): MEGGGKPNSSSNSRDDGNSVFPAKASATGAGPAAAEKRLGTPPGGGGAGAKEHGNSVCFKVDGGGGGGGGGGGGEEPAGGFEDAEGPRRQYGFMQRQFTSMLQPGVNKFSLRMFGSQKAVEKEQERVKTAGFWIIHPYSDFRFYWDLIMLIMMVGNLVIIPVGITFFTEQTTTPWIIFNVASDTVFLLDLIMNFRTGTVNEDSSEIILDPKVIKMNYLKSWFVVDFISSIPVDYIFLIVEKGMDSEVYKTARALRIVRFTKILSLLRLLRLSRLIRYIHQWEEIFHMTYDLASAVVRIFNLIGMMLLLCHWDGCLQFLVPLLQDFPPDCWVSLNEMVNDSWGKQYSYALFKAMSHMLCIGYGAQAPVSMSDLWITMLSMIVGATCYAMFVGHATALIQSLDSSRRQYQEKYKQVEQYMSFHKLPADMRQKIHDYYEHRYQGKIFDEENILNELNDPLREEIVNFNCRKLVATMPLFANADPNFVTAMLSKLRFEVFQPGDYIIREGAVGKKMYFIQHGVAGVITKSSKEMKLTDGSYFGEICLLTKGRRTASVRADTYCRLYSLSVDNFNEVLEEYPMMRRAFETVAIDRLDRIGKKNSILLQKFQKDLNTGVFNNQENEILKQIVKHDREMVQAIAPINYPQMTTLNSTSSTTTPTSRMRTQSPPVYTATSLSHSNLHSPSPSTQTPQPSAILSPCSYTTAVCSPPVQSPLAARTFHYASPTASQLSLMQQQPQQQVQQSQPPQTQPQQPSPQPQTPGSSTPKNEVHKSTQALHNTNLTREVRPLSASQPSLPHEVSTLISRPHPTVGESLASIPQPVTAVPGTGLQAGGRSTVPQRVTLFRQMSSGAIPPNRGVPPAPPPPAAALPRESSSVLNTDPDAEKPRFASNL
UniProt Q13555, sequence (whole entry, looked up): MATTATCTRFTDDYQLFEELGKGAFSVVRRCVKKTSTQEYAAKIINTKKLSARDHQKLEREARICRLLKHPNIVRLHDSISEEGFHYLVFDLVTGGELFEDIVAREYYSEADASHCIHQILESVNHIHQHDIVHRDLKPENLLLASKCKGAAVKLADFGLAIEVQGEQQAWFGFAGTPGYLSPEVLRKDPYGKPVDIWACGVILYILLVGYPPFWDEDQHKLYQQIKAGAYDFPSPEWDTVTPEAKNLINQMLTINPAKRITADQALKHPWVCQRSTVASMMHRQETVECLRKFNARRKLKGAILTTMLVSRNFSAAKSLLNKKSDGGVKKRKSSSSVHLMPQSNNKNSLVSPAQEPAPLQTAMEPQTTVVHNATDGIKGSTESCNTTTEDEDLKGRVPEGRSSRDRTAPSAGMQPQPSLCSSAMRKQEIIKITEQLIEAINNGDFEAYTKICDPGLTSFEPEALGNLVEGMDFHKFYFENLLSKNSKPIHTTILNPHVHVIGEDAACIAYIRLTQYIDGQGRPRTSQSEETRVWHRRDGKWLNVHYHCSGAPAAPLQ

Structure (SMILES) | target | assay | conditions | quantity | result
CC(=O)Nc1ccc(O)cc1 | Potassium/sodium hyperpolarization-activated cyclic nucleotide-gated channel 1 (Homo sapiens, UniProt O60741) | ion current, inhibitor | 3 µM | inhibition | 4.42%
CC(C)CC(=O)OC[C@H]1O[C@@](C#N)(c2ccc3c(N)ncnn23)[C@H](O)[C@@H]1O | CCKAR (Homo sapiens, UniProt P32238) | enzyme activity, inhibitor | 20 µM | inhibition | 0%
COc1ncccc1-c1cnn2ccc(N3CCN(C(=O)OC(C)C)CC3)nc12 | PRKACB (Homo sapiens, UniProt P22694) | binding, competition with immobilised ligand | 1 µM | remaining binding | 100%
Cc1nn(C)cc1-c1nc2c(N3CCN(Cc4ccc(Cl)cc4)CC3)c(Cl)cnc2[nH]1 | CAMK2G (Homo sapiens, UniProt Q13555) | binding, competition with immobilised ligand | 1 µM | remaining binding | 100%
[2H]c1c([2H])c([C@]2([2H])CCCN2C(=O)C(C)(C)Oc2ccc3cn[nH]c3c2)c([2H])c([2H])c1C([2H])([2H])[2H] | CDK11B (Homo sapiens, UniProt P21127) | binding, competition with immobilised ligand | 1 µM | remaining binding | 76%
C#Cc1n[nH]c2c(-c3cn(C(C)c4ccccn4)c(=O)[nH]c3=O)cc(F)cc12 (centres unmarked) | PLK1 (Homo sapiens, UniProt P53350) | enzyme activity, inhibitor | 1 µM | inhibition | 9.8%
c1cncc([C@@H]2CCCN2)c1 | HRH4 (Homo sapiens, UniProt Q9H3N8) | ligand displacement | 50 µM | inhibition | -11.1%
Nc1ncc(-c2nc(N3CCOCC3)nc(N3CCOCC3)n2)c(C(F)F)n1 | ACVR2A (Homo sapiens, UniProt P27037) | binding, competition with immobilised ligand | 10 µM | remaining binding | 100%
